Results from different studies.
Lines come from different studies, so protocols differ. Numbers after ± are the reported error. Values after ≈ are worked out from the molar mass of the structure shown.
Target: Cytochrome P450 2C9 (CYP2C9, Homo sapiens, UniProt P11712)
Chain of UniProt P11712 (whole entry, looked up): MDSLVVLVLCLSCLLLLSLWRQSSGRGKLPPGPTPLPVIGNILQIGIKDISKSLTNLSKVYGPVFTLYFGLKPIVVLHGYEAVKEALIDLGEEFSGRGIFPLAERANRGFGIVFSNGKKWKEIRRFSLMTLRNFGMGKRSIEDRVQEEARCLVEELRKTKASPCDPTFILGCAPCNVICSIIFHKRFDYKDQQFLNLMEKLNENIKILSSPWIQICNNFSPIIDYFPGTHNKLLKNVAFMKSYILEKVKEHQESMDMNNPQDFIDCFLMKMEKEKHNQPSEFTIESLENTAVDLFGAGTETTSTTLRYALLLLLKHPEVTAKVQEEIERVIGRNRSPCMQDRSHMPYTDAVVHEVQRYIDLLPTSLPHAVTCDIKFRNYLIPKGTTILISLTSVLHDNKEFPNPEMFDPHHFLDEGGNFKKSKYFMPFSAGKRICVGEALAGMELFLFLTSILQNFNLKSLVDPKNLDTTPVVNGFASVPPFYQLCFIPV

SMILES | test | test system | setting | endpoint | value
COc1cc(O)c(CC=C(C)C)c2c1C(=O)CC(c1ccc(O)cc1)O2 (centres unmarked) | enzyme activity, inhibitor | human liver microsomes | 1 µM, pH 7.4, added: tolbutamide | inhibition | 31.6 ± 8%
Cc1cc(C)c(CNC(=O)c2cc(Cl)c3c(c2C)O[C@@](C)([C@H]2CC[C@H](N(C)C)CC2)O3)c(=O)[nH]1 | – | recombinant human CYP2C9 | 0 and 30 min | CLint | 0.00168 µL/min/pmol
C=CC(=O)Nc1cc(Nc2nccc(-c3cn(C)c4ccccc34)n2)c(OCC(F)(F)F)nc1N(C)CCNC | substrate depletion | recombinant human CYP | 1 µM | intrinsic clearance | 0.3 µL/min/pmol
CC(C)=CCc1cc2c(cc1O)O[C@H](c1ccc(O)cc1)CC2=O | phase I metabolism, substrate | recombinant enzyme | pH 7.4 | CLint | 108 µL/min/mg
CCc1cc(/C(C)=N/OCc2ccc(C3CCCCC3)c(C(F)(F)F)c2)ccc1CN1CC(C(=O)O)C1 | population PK | human, CYP2C9*1/*3, plasma | – | CYP2C9-mediated clearance | 1.38 L/h
N#C[C@H](C[C@@H]1CCCNC1=O)NC(=O)[C@H](CC1CC1)NC(=O)c1cc2cccc(Cl)c2[nH]1 | ISEF abundance scaling | – | 2 µM, pH 7.4 | fraction metabolised | < 1%
O=C(O)/C=C/c1ccccc1 | inhibitor | – | – | IC50 | 30 µg/mL (≈ 202 µM)
CC(C)=CCc1c(O)cc2c(c1O)C(=O)C[C@@H](c1ccc(O)cc1)O2 | – | – | 1 µM, pH 7.4 | inhibition | < 10%
C=CCN=C=S | enzyme activity | human liver microsomes | concentration not given, 10 min, added: tolbutamide | inhibition | ~77%
COc1cc(O)c(CC=C(C)C)c(O)c1C(=O)/C=C/c1ccc(O)cc1 | enzyme activity, inhibitor | human liver microsomes | 10 µM, pH 7.4, added: tolbutamide | inhibition | 69.7 ± 3%
CCCCC1=NC2(CCCC2)C(=O)N1Cc1ccc(-c2ccccc2S(=O)(=O)Nc2noc(C)c2C)c(COCC)c1 | substrate | human liver microsomes | – | intrinsic clearance | 0.212 µL/min/pmol

Excerpt of the above:
SMILES | test | test system | setting | endpoint | value
N#C[C@H](C[C@@H]1CCCNC1=O)NC(=O)[C@H](CC1CC1)NC(=O)c1cc2cccc(Cl)c2[nH]1 | ISEF abundance scaling | – | 2 µM, pH 7.4 | fraction metabolised | < 1%
